# Experimental data pooled from the literature.
# Numbered parts are unrelated; each lists some results of a single study. Positions count from the first letter of the parent shown.

# Study 1
# Target: RING finger protein unkempt homolog, zinc fingers 1-6, GST-SBP tag (UNK, Homo sapiens, UniProt Q9C0B0, residues 30-357)
# UniProt Q9C0B0, sequence (30-357, looked up): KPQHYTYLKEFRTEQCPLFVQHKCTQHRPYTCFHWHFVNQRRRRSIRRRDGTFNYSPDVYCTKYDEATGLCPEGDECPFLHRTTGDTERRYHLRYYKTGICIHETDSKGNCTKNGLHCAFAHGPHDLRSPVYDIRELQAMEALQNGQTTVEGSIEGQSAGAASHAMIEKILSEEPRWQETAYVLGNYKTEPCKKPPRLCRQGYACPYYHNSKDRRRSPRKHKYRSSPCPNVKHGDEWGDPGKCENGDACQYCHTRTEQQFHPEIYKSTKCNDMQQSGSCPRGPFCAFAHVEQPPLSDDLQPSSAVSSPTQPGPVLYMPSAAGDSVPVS
# Method: RNA Bind-n-Seq
# Molecule type: RNA
# Medium: in vitro
# Tested at: not given
# Notes: RNA with constant flanks, human-mouse chimeric sites, ends assumed
# Reference: input RNA pool
# Direction: higher = stronger binding
# All sequences stand within: GGGAGUUCUACAGUCCGACGAUC … CAACAGAGGAUUGAGCAUCA
Oligonucleotide,bound/input enrichment [ratio]
GGCCUGGGACCGUCCUGGCUAGUGCAAAAUAGCGGCAGUGGAGGCUCGAGAGGAAAGUUGUUAGUGGGAGGCAGUGGUAGAGGCCGUCAUGUACGGUCCUUUACUCGAUAGAUGUGUUCU,0.747
AAAGAGAAACUAAAGCAAACUGAUUGAAAGAGGAUUGGCAAAGAGAAUUUCAUAGAGAAACUAGGAUUUAUUAGCAAACAUGAGUUAGUAUUCCAGACGUCUCAGAAACCCCAGCCAAAC,1.7
AAAGUGGACUAUGGCGAGUACAUGGAUAAAAACAAUGUGAGGCGGCAAGCAACAACAAUCAUAGCUGAUAACAUUAUAUUUCUGAGUGACCAGACGAAAGAAAAGGCGUAGAAAGGAUGA,1.75
AAAUUUCCCCUCCUGAGACCUCCUCCGAAAUUGGCAUCUCUUACAGAUGCCUCAUCCCCUGUUAGCGUUUUAGUUUGGACCACCCAGCCUUGGACAAUUCCCGCCAACCAGGCAAUUUGC,1.2
UGUAACUUAUCUGUAAAAAAGGUUUCUCCCCUACUGUCAAAAAAUAUGCAUGUAUAGUAAUUAGGACUUCAUUCCUCCAUGUUUUCUUCCCUUAUCUUACUGUCAUUGUCCUUAAACCUU,1.25
CUCAUGGCUGCAGAAACAGGAAGUGGCAAAACUGGUGCAUUUAGUAUUCCCGUUAUCCAGAUAGUGUAUGAAACUCUGAAAGACCAACAGGAAGGAAAAAAAGGAAAAACAACUAUUAAA,0.93
GAUCAUGGAACCAGAAUAGAAAUGAAGAUGAGAUUACCCAGACGAGCCAAAACAGCUGCGCUACAGAAAAGUAAACUUAACCUUGCAGAGUUCCUUAAAUGAAGAUCAAGUUAAGAGAGC,0.908
UGGCGCCUGCGCUCCCCACUCGUGUUUUUAAGUGUAUUUUUAUAAGAUACAUGUAUUUGUAAUAGAUCUUUUGUUACUAUAAUACUGAAUGCUACUGGAGAUUAUGAAAAAUGUUUCAAU,0.326
GGGACUGAUUCAUCCCAAGGACAGGCCACCCCAUUUGGUGUUUGGAAUGAUGACAGUAUGGAAGGGCCUAGUCAAAAUGUUGAAGCUGAGUCAAUUCAGGAUGCCAUGCAUAUGGCAGAG,0.152
CCUGCUCAGAUCACCAUGAAAGUAAUCCAAGGCCUAUAUAGUGGGGUCACCACAGUGGAACUGGACACCCUGGCUGCUGAAACAGCUGCGACCUUGACUACUAAGCACCCUGACUAUGCC,0.133
GCUCCUCCCCGCUCUGCAGCCUGGGGACACUGGGCUGGGACCAGAAUCCAGCUUUCUUUUAAAACUCUCAGUGUAACUGUAUCCCGUGACAUUUCAUUUUUUUUUUAAGAAAAAAACUUU,0.128

# Study 2
# Target: Histone acetyltransferase KAT6A, winged helix 1, GST fusion (KAT6A, Homo sapiens, UniProt Q92794, residues 1-85)
# Method: protein binding microarray
# Molecule type: double-stranded DNA, one strand shown
# Medium: in vitro
# Tested at: not given
# Notes: 8-mer, flanks averaged, mean of 2 arrays, mostly near background
# Reference: not given
# Direction: higher = stronger binding
# Residues (chain): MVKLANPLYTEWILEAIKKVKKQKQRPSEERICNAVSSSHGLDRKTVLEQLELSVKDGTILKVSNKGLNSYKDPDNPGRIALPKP
Oligonucleotide,E-score
CTTGGTGC,-0.128
AGCGGGAA,0.328
ACCGAGGT,0.0194
TATATGCA,-0.0796
CCCTGGAC,-0.173
CCGTTGAG,0.136
GTTATGCA,-0.0958
CCAAGGAG,-0.139
AGCGTACC,0.275
CTACGTTA,0.00813
TAATATCA,-0.0874
CTTAGCCA,-0.0993
TGTAGGAA,-0.138
GGGCTCCA,-0.00534
ATTTTTGG,-0.155
ACCAACAA,-0.183
AATTGTGG,-0.235

# Study 3
# Target: RNA binding protein fox-1 homolog 2, RRM domain, GST-SBP tag (RBFOX2, Homo sapiens, UniProt O43251-10, residues 100-194)
# Method: RNA Bind-n-Seq
# Molecule type: RNA
# Medium: in vitro
# Tested at: 365 nM
# Notes: natural RNA segment, single round, ends assumed
# Reference: no-protein control
# Direction: higher = stronger binding
# All sequences stand within: GGGAGUUCUACAGUCCGACGAUC … UGGAAUUCUCGGGUGCCAA
# Residues (chain): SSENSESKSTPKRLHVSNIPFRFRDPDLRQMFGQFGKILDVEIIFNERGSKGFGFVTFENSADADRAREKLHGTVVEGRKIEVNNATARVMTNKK
Oligonucleotide,RBNS enrichment (R)
AAAUGGAUUCCCUGGCUGAGCCAGUGUCUCUUUCCCACUGUCCUUUCUCCAGGUGUGCAGAUGGCAUGUUAGUGUGGGCACGCUGUUAAGUGGGUAUCCCACCUCCAGCC,1.77
CCAUGUUGGCCAGGCUGGUCUCGAACUCCUGACCUCAGGUGAUCUGCCCACCCCAGCCUCCCAAAAUGCUGGGAUUACAGGCGUGAGCCACGGCACGCAGCCAGCAAGUU,0.323
CCUCAUUAACCAGUGCUUUACCAAACAGCAAACCAAGAGAUUGCUAAUUGCUGUUGAAAGCAAAAAUGCUAAUAUUAAAAGUCACAGUGUUCUUUAUAUACAAUAAUGGA,0.499
AAAUCAUUAAGGAUGUAAAAGCCAUGCUUGCCUAUUUGCUGUAUACAUGUAAUGAAAUUGUAGAUAAAGUGUAGUGCAUUGAAACAAAUGAACAAAAAGUAGAUACUUUU,3.57
UAAAAUGAAUUGCUAUACCUUAGAAACAAUGUGACUCUAUUAAAAUAGUAUGGGGUAAGUACCCUACCUCUUAUAAAGGGCAAAAUGGAAAAGAAGUUUUCUUACAAACC,1.73
CGUACGGAGGUGUGCAAUCCUGUGUCAGUCGCCUUGUGACACUGAAGUGGAUGAGUUAUAGAGGAGGCCCUCGAGGCUGACCCAAUACGGUUACUAAGGGAGACUACAGG,0.379
CCCUUGGUCUUCGCUCCAUCGCCUUGAAAGCUCUGAAGAGGCCCUGGGUUGCCGCGGCAGCAGUGGUCUGUUUGAUGCUGCCGUUUGCCGCUGCCGGCCCCUCCUCAGAC,0.656
ACCACCUAUGGGGGCCGGGCAGGAGCCUCUGGGGCCUCCACUCCGACAUCAGGACCUGAGAUGACCGCUGUGUGGCGCUCUCUCCCUGGGCAGGGUGGAUGCCACAGGCC,0.56
AUUUGGGAAAGUUGGGCUAUAUGUUUGCAGGGACUUAAAAAGGUAGGUUCAGAACAGUAUUCUCAGUACAAGCUUCGCUUUUCUAAGAAGUACACAUUUGGCCCAAAUUC,0.542
GGAAACGACGCUGAGAGGAUGACGACAACGUGCAACAGCAGAAAGAUGCUUGCAAGCAGAGUCAGGGUCACCAGUGAAUGCCACAAAAGUUCUCUUUCCCACUGUUUAAU,0.617
UGACAUUCCCUUAGCACCAGCUGUCCCACCUCCAGGGUCCUGACCAGGUCAGAGAUGUCCCCUGCCAUGCAGAGCAGGAAGCCUCAGCUGGGCCUGGAGUGUCCCUGCUC,0.326
CUGGAAAUUUCUGCUAACACCAAGAUAUUUAAGAGUGUACAUAGUAGGUGCUCAACAAAUUUAUUGAAUGAAUGAGUGAAUGGAAAAACUGGGAGAGUCAAAAGUGAGCA,3.24

# Study 4
# Target: ABI1, truncated, D143A, DHFR fusion (Arabidopsis thaliana)
# Method: DHFR PCA, deep sequencing
# Medium: yeast
# Notes: methotrexate growth selection, single substitutions
# Added: (+)-ABA 200 µM
# Reference: wild-type fitted maximum
# Direction: higher = stronger binding
# Parent: PYL1, truncated, DHFR fusion (Arabidopsis thaliana); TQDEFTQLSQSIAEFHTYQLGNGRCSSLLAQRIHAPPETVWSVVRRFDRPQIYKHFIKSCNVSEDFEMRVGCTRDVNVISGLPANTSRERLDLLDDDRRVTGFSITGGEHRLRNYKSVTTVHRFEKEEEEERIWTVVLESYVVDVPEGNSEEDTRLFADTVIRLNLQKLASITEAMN
Variant,relative binding score
I57D,3.93%
P146W,19.6%
S42T,98.6%
D65F,88.9%
P83H,33%
M68G,92.8%
E147R,88.9%
G148R,73.1%
E131R,104%
V142W,58.1%
R46V,71%
L169N,-2.03%
H122D,82.1%
S9P,74.9%
S80K,75.6%
N85L,103%
C72L,91.2%
T1R,95.5%
L156E,91.8%

# Study 5
# Target: CCNA2, cyclin fold, Cln2 fusion (human)
# Method: yeast growth competition, sequencing
# Medium: yeast
# Notes: strong parent motif
# Reference: not given
# Direction: higher = stronger binding
# Parent: SCAPER docking peptide (human); SNARRSLNFGGST; partner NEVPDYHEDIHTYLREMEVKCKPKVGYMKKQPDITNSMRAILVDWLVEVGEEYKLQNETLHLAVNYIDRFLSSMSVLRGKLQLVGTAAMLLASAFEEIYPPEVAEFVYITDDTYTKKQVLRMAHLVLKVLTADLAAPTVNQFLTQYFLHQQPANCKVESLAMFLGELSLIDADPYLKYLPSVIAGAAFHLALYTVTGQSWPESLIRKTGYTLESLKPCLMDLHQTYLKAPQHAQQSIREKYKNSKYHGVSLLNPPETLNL
Variant,normalised enrichment score
A3F,4.66
T13Y,6.34
L7A,0.868
F9P,1.29
G10R,4.92
L7S,1.03
R5H,1.54
L7M,1.14
S6W,5.13
N2F,5.92
S6H,6.72
R5S,1.26
N2A,5.97
N2Q,6.48
R4Y,3.41
T13V,6.25
S12F,5.9
G11Q,6.55
R4S,2.39
L7K,0.917
T13E,6.45
R4M,2.7
N8K,6.38
S1T,6.57
R5Q,2.52
